Measured values pooled from the literature.
Each line is one published result; not all experiments were run side by side. Numbers after ± are the reported error.

SMILES	cell line	assay	setting	viability
COC(=O)C1=CO[C@@H](OC(C)=O)[C@@H]2C(Cn3cc(-c4ccc(F)cc4)nn3)=CC[C@H]12	SK-N-SH	neuroprotection, MTT	0.15 µM, 24 h, with: 250 µM H2O2	64.9 ± 1.2%
COc1ccnc(Nc2c3c(nc4ccccc24)CCC(C)C3)c1 (stereo not drawn)	SH-SY5Y	MTT	50 µM, 1 h pretreatment, 10% FBS, with: H2O2	41.2 ± 3.32%
CC[C@H](C)[C@H](NC(=O)[C@H](CCC(=O)O)NC(=O)[C@@H](NC(=O)[C@H](CCC(N)=O)NC(=O)[C@@H](N)CCCCN)[C@@H](C)CC)C(=O)N[C@@H](CCCCN)C(=O)N[C@@H](CCCCN)C(=O)N[C@@H](Cc1ccccc1)C(=O)N[C@@H](CCCCN)C(=O)O	mouse cardiomyocytes		250 µM, 30 min, pH 6.5, with: 120 min OGD/acidosis	14.6%
Cc1cccnc1Nc1c2c(nc3ccccc13)CCC(C)C2 (stereo not drawn)	SH-SY5Y	MTT	50 µM, 1 h pretreatment, 10% FBS, with: H2O2	57 ± 2.66%
CC(=O)N[C@@H](CC(C)C)C(=O)N[C@H](C(=O)N[C@@H](Cc1ccccc1)C(=O)N[C@H]1CC(=O)NCCCC[C@@H](C(=O)N[C@@H](CCC(N)=O)C(=O)N[C@@H](CC(C)C)C(=O)N[C@H](C(=O)N[C@@H](CO)C(=O)NCCOCCOCC(=O)N[C@@H](CCCCN)C(N)=O)[C@@H](C)O)NC(=O)[C@H](Cc2c[nH]c3ccccc23)NC(=O)[C@H](Cc2ccc(O)cc2)NC(=O)[C@H](Cc2c[nH]cn2)NC1=O)[C@@H](C)O	SJSA-1	MTT	concentration not given	no effect
COC(=O)C1=CO[C@@H](OC(C)=O)[C@@H]2C(Cn3cc(CCO[Si](c4ccccc4)(c4ccccc4)C(C)(C)C)nn3)=CC[C@H]12	SK-N-SH	neuroprotection, MTT	0.6 µM, 24 h, with: 250 µM H2O2	53.2 ± 0.5%
CC(C)C[C@@H](NC(=O)CCNc1ccc([N+](=O)[O-])c2nonc12)C(=O)N[C@H](CC(C)C)C(=O)N[C@H](CC(C)C)C(=O)N[C@H](CC(C)C)C(=O)N[C@H](Cc1ccc(OP(=O)(O)O)cc1)C(=O)O	HS5	MTT	200 µM, 24 h	> 60%
c1cc(Nc2c3c(nc4ccccc24)CCCC3)c2cccnc2c1	SH-SY5Y	MTT	50 µM, 1 h pretreatment, 10% FBS, with: H2O2	29.3 ± 0.98%
COC(=O)C1=CO[C@@H](OC(C)=O)[C@@H]2C(Cn3cc(COCc4ccccc4)nn3)=CC[C@H]12	SK-N-SH	neuroprotection, MTT	0.3 µM, 24 h, with: 250 µM H2O2	67.1 ± 0.2%

Some of these lines once more:
SMILES	cell line	assay	setting	viability
COC(=O)C1=CO[C@@H](OC(C)=O)[C@@H]2C(Cn3cc(COCc4ccccc4)nn3)=CC[C@H]12	SK-N-SH	neuroprotection, MTT	0.3 µM, 24 h, with: 250 µM H2O2	67.1 ± 0.2%
